Assay results gathered from unrelated publications.
Parts stem from different laboratories: compare values within a part only. “And” joins repeats or separate records; there may be more than shown.
UniProt P10721, sequence (whole entry, unmodified, looked up): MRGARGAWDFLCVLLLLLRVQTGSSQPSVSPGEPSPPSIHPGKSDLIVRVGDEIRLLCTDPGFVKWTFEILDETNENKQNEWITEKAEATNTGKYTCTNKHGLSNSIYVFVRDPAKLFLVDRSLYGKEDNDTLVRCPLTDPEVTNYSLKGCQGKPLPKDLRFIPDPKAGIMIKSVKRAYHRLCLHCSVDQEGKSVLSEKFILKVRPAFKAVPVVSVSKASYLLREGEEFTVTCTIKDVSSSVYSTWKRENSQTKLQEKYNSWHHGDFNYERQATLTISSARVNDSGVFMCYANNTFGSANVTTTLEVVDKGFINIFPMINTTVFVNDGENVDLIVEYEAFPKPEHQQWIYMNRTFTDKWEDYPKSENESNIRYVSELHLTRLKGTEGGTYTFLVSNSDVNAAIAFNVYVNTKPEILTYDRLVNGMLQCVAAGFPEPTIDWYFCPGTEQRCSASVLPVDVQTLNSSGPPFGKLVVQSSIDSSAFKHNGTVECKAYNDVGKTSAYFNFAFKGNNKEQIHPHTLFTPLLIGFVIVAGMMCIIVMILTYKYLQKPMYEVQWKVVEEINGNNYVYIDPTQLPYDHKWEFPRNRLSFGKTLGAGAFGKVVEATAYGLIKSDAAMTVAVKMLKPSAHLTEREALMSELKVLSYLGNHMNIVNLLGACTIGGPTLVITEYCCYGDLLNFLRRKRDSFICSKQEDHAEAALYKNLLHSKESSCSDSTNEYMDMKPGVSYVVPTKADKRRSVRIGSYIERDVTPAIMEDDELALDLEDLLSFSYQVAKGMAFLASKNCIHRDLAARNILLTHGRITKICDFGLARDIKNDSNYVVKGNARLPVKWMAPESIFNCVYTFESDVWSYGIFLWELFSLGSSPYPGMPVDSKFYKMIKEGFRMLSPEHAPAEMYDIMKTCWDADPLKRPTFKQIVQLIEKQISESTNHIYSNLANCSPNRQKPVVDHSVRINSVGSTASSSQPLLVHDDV
UniProt Q15375, sequence (whole entry, looked up): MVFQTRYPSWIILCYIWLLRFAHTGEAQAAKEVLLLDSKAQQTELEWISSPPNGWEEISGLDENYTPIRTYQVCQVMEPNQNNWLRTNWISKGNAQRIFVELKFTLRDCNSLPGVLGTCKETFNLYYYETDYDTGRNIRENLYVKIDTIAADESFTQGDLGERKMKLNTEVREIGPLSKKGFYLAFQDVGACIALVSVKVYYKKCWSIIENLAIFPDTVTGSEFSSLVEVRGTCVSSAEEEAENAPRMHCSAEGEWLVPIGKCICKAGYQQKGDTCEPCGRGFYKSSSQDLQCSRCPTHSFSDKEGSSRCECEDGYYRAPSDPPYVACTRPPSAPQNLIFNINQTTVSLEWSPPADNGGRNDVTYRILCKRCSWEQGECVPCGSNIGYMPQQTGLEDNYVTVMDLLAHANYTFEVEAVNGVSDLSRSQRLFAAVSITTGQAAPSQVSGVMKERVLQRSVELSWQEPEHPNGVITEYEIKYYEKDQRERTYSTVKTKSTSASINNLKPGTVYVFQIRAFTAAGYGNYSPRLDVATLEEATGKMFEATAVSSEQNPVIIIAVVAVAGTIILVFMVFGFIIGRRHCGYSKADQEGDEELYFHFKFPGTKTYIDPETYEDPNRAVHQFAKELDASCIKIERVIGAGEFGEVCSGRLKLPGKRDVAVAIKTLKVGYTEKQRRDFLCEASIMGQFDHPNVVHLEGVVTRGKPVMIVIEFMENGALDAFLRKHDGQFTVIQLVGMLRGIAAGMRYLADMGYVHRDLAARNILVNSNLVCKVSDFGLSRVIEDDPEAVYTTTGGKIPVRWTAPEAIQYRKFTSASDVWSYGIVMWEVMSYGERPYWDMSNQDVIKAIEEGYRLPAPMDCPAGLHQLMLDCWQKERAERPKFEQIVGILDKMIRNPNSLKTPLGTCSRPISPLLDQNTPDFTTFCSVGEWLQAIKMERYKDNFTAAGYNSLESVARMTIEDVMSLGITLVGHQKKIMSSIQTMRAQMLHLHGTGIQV
UniProt Q13555, sequence (whole entry, looked up): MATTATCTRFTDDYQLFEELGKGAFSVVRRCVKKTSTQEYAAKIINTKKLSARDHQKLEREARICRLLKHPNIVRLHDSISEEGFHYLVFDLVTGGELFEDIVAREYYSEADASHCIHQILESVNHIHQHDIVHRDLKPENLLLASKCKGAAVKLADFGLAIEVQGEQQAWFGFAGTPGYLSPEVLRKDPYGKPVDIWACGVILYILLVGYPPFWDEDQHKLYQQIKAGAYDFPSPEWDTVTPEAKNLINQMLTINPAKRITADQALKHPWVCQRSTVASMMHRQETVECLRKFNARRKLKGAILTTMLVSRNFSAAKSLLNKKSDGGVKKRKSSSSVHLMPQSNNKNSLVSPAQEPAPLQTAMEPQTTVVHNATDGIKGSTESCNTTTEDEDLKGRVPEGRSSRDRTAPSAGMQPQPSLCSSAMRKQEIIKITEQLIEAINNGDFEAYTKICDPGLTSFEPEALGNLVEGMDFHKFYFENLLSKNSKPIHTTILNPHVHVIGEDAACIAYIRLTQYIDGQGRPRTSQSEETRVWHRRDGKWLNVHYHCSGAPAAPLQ
UniProt Q13546, sequence (whole entry, looked up): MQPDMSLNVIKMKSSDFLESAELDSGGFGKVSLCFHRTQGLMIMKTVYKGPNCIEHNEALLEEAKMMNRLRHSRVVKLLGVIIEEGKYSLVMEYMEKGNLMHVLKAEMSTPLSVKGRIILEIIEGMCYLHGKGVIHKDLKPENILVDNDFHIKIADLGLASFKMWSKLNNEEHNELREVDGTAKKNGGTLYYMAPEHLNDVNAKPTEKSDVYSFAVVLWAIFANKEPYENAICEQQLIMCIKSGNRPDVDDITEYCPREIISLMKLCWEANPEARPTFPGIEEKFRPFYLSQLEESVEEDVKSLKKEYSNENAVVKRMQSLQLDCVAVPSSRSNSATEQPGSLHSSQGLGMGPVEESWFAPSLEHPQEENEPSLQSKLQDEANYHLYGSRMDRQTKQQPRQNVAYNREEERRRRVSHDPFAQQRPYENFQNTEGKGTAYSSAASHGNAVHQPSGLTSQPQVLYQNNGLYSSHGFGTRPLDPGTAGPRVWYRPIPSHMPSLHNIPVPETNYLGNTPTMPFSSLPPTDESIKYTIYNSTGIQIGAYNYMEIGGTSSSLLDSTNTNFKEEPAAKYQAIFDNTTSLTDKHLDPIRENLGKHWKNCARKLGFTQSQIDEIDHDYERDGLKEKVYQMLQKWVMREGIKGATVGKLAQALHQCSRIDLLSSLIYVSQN
UniProt Q02750, sequence (whole entry, looked up): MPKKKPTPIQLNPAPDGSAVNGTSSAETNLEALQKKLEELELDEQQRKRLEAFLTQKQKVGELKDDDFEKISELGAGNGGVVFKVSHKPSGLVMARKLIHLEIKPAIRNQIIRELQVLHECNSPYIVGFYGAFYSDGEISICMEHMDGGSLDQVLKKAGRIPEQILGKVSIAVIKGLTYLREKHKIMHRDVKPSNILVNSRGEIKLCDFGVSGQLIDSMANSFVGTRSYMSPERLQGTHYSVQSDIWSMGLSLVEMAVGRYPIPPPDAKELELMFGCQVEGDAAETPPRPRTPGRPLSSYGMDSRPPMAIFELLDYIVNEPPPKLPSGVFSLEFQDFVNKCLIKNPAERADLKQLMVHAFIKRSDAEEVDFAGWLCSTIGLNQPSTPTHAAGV
UniProt P00519, sequence (whole entry, unmodified, looked up): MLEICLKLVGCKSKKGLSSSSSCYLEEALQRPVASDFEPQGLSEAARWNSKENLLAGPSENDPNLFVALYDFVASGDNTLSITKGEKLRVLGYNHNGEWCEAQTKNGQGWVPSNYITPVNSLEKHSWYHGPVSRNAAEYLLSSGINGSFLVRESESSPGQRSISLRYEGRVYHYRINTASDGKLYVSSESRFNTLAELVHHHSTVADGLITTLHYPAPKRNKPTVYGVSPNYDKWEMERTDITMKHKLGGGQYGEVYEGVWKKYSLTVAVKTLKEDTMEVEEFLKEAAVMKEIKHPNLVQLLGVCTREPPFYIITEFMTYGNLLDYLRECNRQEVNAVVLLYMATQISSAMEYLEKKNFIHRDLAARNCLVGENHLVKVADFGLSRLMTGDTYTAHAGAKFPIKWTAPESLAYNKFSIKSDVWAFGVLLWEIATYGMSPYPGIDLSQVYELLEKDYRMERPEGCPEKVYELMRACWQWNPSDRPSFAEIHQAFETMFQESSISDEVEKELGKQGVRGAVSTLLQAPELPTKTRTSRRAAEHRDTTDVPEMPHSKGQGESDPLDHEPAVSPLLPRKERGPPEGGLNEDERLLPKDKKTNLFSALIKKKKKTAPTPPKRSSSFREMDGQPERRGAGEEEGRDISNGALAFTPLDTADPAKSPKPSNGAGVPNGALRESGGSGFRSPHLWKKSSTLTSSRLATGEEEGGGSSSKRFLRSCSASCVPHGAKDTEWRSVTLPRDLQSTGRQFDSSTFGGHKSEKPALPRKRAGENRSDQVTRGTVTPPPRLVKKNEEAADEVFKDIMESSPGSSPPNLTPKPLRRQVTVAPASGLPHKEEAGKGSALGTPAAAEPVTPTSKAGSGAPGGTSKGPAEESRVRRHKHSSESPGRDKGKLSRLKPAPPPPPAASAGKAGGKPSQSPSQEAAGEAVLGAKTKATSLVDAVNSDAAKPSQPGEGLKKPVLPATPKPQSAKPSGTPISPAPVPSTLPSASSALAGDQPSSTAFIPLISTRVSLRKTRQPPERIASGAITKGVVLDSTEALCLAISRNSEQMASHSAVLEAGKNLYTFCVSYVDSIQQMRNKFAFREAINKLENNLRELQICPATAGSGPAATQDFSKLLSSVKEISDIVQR

Study 1
Structure (SMILES): COc1ccc2[nH]c3c4[nH]c5ccc(OC)cc5c4c4c(c3c2c1)C(=O)NC4=O
Read-out: binding
Concentration: 1 µM
target | test | remaining binding [%]
ABL1 (Homo sapiens, UniProt P00519, Q252H) |  | 28
MAP4K3 (Homo sapiens, UniProt Q8IVH8) | competition with immobilised ligand | 73
AKT3 (Homo sapiens, UniProt Q9Y243) |  | 98
KIT (Homo sapiens, UniProt P10721) | competition with immobilised ligand | 24
MARK4 (Homo sapiens, UniProt Q96L34) |  | 100
EPHA7 (Homo sapiens, UniProt Q15375) | competition with immobilised ligand | 86

Study 2
SMILES: COc1ccc2c(c1)O[C@H](c1ccc(OC)c(OC)c1)C[C@@H]2NC(=O)C1(c2ccc3c(c2)OC(F)(F)O3)CC1
Technique: competition with immobilised ligand
Concentration: 1 µM
target | test | remaining binding [%]
RIPK1 (Homo sapiens, UniProt Q13546) | cell-free assay | 100
MYLK4 (Homo sapiens, UniProt Q86YV6) | cell-free assay | 100
PIK3C2B (Homo sapiens, UniProt O00750) | cell-free assay | 96
PRKAA2 (Homo sapiens, UniProt P54646) | cell-free assay | 98
EPHA7 (Homo sapiens, UniProt Q15375) | cell-free assay | 100
PIK3CD (Homo sapiens, UniProt O00329) | cell-free assay | 85
LRRK2 (Homo sapiens, UniProt Q5S007, G2019S) | cell-free assay | 100
Insulin receptor (INSR, Homo sapiens, UniProt P06213) | cell-free assay | 82
CAMK2G (Homo sapiens, UniProt Q13555) | cell-free assay | 100
eIF-2-alpha kinase GCN2, C-terminal kinase domain (EIF2AK4, Homo sapiens, UniProt Q9P2K8, S808G) | cell-free assay | 97
KIT (Homo sapiens, UniProt P10721, D816V) | cell-free assay | 99
PIK3C3 (Homo sapiens, UniProt Q8NEB9) | cell-free assay | 88
BRSK2 (Homo sapiens, UniProt Q8IWQ3) | cell-free assay | 88
Myosin-IIIa (MYO3A, Homo sapiens, UniProt Q8NEV4) | binding | 100
SRPK3 (Homo sapiens, UniProt Q9UPE1) | cell-free assay | 97
EPHA4 (Homo sapiens, UniProt P54764) | cell-free assay | 91
MAP2K1 (Homo sapiens, UniProt Q02750) | cell-free assay | 100
PRKG1 (Homo sapiens, UniProt Q13976) | cell-free assay | 100
CDK11B (Homo sapiens, UniProt P21127) | cell-free assay | 100
PRKD2 (Homo sapiens, UniProt Q9BZL6) | cell-free assay | 100
WNK3 (Homo sapiens, UniProt Q9BYP7) | cell-free assay | 100
CSNK1G2 (Homo sapiens, UniProt P78368) | cell-free assay | 95

Study 3
Structure (SMILES): COc1ccc(-c2c(Nc3ccccn3)[nH]c3c(C4=CCCCC4)c(-c4ccccc4)nn3c2=O)cc1
Host: human
Medium: plasma
Route: oral
test | setting | MRT(0-inf) observed
 | 400 mg once daily | 26.1 h and 32.6 h and 14.8 h and 33 h
LC-MS/MS non-compartmental | 200 mg twice daily, cycle 1 | 212 h
LC-MS/MS non-compartmental | 50 mg once daily, cycle 1 | 63.7 h

Study 4
Structure (SMILES): CC(=O)N[C@@H](Cc1c[nH]c2ccccc12)C(=O)N[C@@H](CCC(=O)C=[N+]=[N-])C(=O)OC(C)C
Host: mouse, EL4 tumour-bearing
Medium: EL4 tumour
Dose: dose not given
Reference: vehicle
test | log2 fold change
item: citrulline | -0.788
item: beta-hydroxyisovalerate | -0.106
item: S-carboxymethyl-L-cysteine | 0.412
item: gamma-glutamyltyrosine | -0.287
item: 5-methyl-2'-deoxycytidine | 0.409
item: 2-methylcitrate/homocitrate | 0.386

Study 5
SMILES: CC(C)n1cnc(-c2ccc(F)cc2)c1-c1ncc(C(=O)Nc2ccc(N3CCN(C)CC3)cc2)[nH]1
Technique: phase 2a trial
Host: idiopathic pulmonary fibrosis patients
setting | patients with constipation
60 mg once daily, adverse event grade 3 | 0%
30 mg once daily, adverse event grade 1 | 0%
60 mg once daily, adverse event grade 4 | 0%
60 mg once daily, adverse event grade 2 | 0%
30 mg once daily, adverse event grade 5 | 0%
dose not given, adverse event grade 4, all dose arms pooled | 0%
60 mg once daily, adverse event grade 5 | 0%

Repeated from above (study 2):
target | test | remaining binding [%]
LRRK2 (Homo sapiens, UniProt Q5S007, G2019S) | cell-free assay | 100
PIK3C3 (Homo sapiens, UniProt Q8NEB9) | cell-free assay | 88
SRPK3 (Homo sapiens, UniProt Q9UPE1) | cell-free assay | 97
eIF-2-alpha kinase GCN2, C-terminal kinase domain (EIF2AK4, Homo sapiens, UniProt Q9P2K8, S808G) | cell-free assay | 97
PRKG1 (Homo sapiens, UniProt Q13976) | cell-free assay | 100
CAMK2G (Homo sapiens, UniProt Q13555) | cell-free assay | 100
PIK3CD (Homo sapiens, UniProt O00329) | cell-free assay | 85
